Measured values collected from several papers.
Each line is one published result; not all experiments were run side by side. ± marks the error that the study gave.

Cc1ncccc1-c1cnc(NCc2c(F)ccc3c2CCO3)n2cnnc12 — half-life (female CB17 SCID mouse, HT-1376 xenograft, plasma; 75 mg/kg, day 1): 1.18 h
CCC/C(=C\C1=C(OC)C(=O)c2ccccc2C1=O)C(=O)N(CC)CC — half-life (mouse, male, eye; intravitreal, 10 µM): 1.11 h
O=C(O)C[C@H](O)C[C@H](O)/C=C/c1c(C2CC2)nc2ccccc2c1-c1ccc(F)cc1 — half-life (FVB wild-type mouse, plasma; oral, 5 mg/kg, added: silymarin 500 mg/kg oral): 3 h
NCc1cc2c(cc1F)C(=O)N(C1CCC(=O)NC1=O)C2 (centres unmarked) — half-life (male CD-1 mouse, whole blood): > 3 h
CCOC(=O)C1=C(CN2CCC[C@@H]2C(=O)Nc2ccc(B(O)O)cc2)NC(c2nccs2)=N[C@H]1c1ccc(F)cc1Br — half-life (ICR mouse, plasma; intravenous, 2 mg/kg): 1.95 ± 0.16 h
N[C@@H](C[18F])C(=O)O — half-life (PET; athymic nude mouse, blood; intravenous): 0.0132 h
Cc1ccc2c(-c3ccncc3)c(-c3ccc(F)cc3)nn2c1 — half-life (CD1 mouse female; oral, 25 mg/kg): 2.33 h
O=c1c2cc(Cl)c(CO)cc2[nH]c(=S)n1Cc1cccnc1 — half-life (mouse, plasma; intravenous): 0.75 h
Fc1ccc(-c2nn3cc(F)ccc3c2-c2ccncc2)cc1 — half-life (CD1 mouse female; oral, 25 mg/kg): 25.7 h
CCN(CC)CCOC(=O)c1ccc(N)cc1 — half-life (LC-MS; BALB/c nude mouse, plasma; 2 µM): 0.0702 h
CN1CCCC1CCNS(=O)(=O)c1ccc2c(c1)CN(CC1CCCCC1)CC2 (centres unmarked) — half-life (mouse, brain; oral, 10 mg/kg): 15 h
